Experimental data collected from several papers.
A part holds a random share of what one study measured. Substitutions count along the parent as printed.

Series 1 — method: RNA Bind-n-Seq; form: RNA; medium: in vitro; concentration: 365 nM; baseline: no-protein control; direction: higher = stronger binding; endpoint: RBNS enrichment (R)
Target: RNA binding protein fox-1 homolog 2, RRM domain, GST-SBP tag (RBFOX2, Homo sapiens, UniProt O43251-10, residues 100-194)
Setting: natural RNA segment, single round, ends assumed
Shared flanks, not repeated: GGGAGUUCUACAGUCCGACGAUC … UGGAAUUCUCGGGUGCCAA
Construct (chain): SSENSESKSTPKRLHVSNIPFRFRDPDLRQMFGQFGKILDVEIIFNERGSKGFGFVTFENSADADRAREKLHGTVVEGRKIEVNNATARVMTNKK
Strand = AGCUUCAGAUGAAGCUUUAAGCUGCAGUGUUGUGAAGUGAUUAAUUCCCUUUCUACCAACCCCGUGGGAGUUCUACAGUACGGCUGUCCUGACACGGCUCUUGUCUAGGA; result = 0.295
Strand = AUGCCCUGCCAGAAGGCGCUGCCUUAAAUGGUCCUGUUAACUGCUGCCACCCGGCCGUGGCCCGCCCUGGUCAGGCUGCUUCCUUAAUCAAGAAAACUACCUGGUGAUGC; result = 0.265
Strand = AUCAUACCACUGCACUCCAGCCUGGGUGACAGAGCGAGACCCUGUCUCAAAAAAAAAAAAGAAUUUGGAGAUGGUUCUGCCCACUCUGGUUUCUCUGAAAAAACGAGGUA; result = 0.282
Strand = UCCUAACAAAGUCUCAUAGUGUUAACACUGGUUCUGCAAUAUCUCUGAGGUGCAAAGAAUGCACUUUUCCCUAUGGGGCCCAGAGUUUGCCUUUUCUGCCAGGCAGUCAC; result = 0.43
Strand = GAGACCUGAGCUCUUCUGGCCACGUGGAACCUCGAACCCGAGCUCCUGCAGAAGUGGCCCUGGAGAUUGAGGGUCCCUGGACACUCCCUAUGGAGAUCCGGGGAGCUAGG; result = 0.21
Strand = CCAGAAGAACCAGCACUUACUUCUUUCUCUAGUUCUUAUGUUCAGAAUGUGGUAUUGGCCCUGGCCUAGCCCCUUCCACUUCCCAUAAUUCUUGCCUCUUUCCAUAAUUC; result = 1.1
Strand = ACUAGAUUAGGACUAUUACAUCCAAGGCACUGGGGGAUUCUGGUGGGCUCCAAAUUAGCUUUACUGAUUGAACAUCCACAGAGAUGGAGGCAUUUAAUACAAAACCAGGA; result = 0.336

Series 2 — method: DHFR PCA, deep sequencing; medium: yeast; with: (+)-ABA 58 µM; baseline: wild-type fitted maximum; direction: higher = stronger binding; endpoint: relative binding score
Target: ABI1, truncated, D143A, DHFR fusion (Arabidopsis thaliana)
Setting: methotrexate growth selection, single substitutions
Starting sequence: PYL1, truncated, DHFR fusion (Arabidopsis thaliana); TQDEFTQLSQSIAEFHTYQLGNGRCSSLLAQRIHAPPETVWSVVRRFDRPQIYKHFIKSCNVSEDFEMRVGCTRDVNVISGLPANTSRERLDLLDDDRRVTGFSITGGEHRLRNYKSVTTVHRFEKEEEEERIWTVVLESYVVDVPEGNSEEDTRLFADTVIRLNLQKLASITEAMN; partner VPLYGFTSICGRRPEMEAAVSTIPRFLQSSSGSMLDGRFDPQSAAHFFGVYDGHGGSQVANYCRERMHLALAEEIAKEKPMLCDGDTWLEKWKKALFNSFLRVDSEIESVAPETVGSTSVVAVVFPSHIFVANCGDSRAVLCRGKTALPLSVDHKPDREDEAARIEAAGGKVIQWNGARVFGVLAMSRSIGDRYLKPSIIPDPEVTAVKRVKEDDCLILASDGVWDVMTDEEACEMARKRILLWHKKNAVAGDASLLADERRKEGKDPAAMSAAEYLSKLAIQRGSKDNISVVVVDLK
Change = Q31N; result = 22.8%
Change = K126S; result = 98.8%
Change = E129G; result = 93.8%
Change = V137C; result = 44.9%
Change = E151T; result = 79.1%

Series 3 — target: CCND1, cyclin fold, Cln2 fusion (human); method: yeast growth competition, sequencing; medium: yeast; setting: strong parent motif; baseline: not given; direction: higher = stronger binding; endpoint: normalised enrichment score
Starting sequence: INSM1 docking peptide (human); PKAIRKLHFEDEV
Change = A3V; result = 2.45
Change = E10N; result = 3.75
Change = L7S; result = -0.0222
Change = H8C; result = 5.89
Change = L7K; result = 0.141
Change = E10Y; result = 2.55

Other studies, line by line
Substance = PhoQ, residues 284 288 289 292 302 303 NLALSC; target = PhoP, residues 12 14 15 18 19 VQGLL (Escherichia coli, UniProt P23836); assay = Sort-seq, item: YFP reporter; test system = E. coli; conditions = PhoQ-PhoP variant library, with: 10 µM Mg2+; scale = baseline: high Mg2+ state, higher = stronger signaling; endpoint = fold induction; result = 1.92
